Measured values from different studies.
Numbers after ± are the reported error.
HTR2A: 5-hydroxytryptamine receptor 2A (HTR2A, Homo sapiens, UniProt P28223)
Chain of UniProt P28223 (whole entry, looked up): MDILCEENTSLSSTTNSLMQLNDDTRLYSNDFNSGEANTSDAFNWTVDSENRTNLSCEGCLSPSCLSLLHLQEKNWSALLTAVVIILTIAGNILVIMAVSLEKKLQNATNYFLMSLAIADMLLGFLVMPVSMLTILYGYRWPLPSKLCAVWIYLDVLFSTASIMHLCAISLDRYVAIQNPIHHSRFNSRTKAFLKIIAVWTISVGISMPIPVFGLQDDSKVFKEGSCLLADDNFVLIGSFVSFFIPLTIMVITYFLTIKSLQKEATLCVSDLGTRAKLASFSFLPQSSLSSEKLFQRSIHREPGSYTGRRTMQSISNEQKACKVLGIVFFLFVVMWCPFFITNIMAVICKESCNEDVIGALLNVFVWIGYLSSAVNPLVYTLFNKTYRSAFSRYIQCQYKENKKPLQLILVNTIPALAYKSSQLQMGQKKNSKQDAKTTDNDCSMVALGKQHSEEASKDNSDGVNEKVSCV
Chain of UniProt P28472 (whole entry, looked up): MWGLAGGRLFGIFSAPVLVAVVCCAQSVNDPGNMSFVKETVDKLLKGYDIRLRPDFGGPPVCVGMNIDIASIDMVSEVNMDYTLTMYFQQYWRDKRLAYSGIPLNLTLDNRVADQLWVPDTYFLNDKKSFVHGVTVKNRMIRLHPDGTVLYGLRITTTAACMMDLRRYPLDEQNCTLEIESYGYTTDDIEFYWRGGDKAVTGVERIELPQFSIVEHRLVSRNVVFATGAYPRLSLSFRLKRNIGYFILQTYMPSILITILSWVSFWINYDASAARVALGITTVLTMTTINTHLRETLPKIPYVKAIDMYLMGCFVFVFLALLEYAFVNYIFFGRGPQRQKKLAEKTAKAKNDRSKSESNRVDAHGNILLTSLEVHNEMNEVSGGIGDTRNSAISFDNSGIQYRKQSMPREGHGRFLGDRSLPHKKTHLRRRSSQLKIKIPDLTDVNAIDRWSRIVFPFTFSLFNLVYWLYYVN
Chain of UniProt P28867 (whole entry, looked up): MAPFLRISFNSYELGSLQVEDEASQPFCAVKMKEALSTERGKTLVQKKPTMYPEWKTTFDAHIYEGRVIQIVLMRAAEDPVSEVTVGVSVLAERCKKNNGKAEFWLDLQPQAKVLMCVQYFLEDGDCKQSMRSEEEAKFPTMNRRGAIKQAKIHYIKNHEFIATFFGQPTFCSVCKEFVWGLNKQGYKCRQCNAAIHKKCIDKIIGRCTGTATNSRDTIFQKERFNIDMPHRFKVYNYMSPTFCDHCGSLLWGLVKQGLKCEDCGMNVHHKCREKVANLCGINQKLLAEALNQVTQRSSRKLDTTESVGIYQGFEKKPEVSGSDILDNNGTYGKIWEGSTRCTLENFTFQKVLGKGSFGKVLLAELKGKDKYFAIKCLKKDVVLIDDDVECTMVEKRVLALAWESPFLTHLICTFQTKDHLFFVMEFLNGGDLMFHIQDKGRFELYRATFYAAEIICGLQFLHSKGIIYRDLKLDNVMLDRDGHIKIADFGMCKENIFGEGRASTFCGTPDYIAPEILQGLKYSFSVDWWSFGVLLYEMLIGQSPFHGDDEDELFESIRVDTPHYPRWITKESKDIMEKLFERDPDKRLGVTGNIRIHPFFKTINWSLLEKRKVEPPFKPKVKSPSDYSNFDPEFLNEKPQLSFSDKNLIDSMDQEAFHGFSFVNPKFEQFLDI
Chain of UniProt Q9UGM1 (whole entry, looked up): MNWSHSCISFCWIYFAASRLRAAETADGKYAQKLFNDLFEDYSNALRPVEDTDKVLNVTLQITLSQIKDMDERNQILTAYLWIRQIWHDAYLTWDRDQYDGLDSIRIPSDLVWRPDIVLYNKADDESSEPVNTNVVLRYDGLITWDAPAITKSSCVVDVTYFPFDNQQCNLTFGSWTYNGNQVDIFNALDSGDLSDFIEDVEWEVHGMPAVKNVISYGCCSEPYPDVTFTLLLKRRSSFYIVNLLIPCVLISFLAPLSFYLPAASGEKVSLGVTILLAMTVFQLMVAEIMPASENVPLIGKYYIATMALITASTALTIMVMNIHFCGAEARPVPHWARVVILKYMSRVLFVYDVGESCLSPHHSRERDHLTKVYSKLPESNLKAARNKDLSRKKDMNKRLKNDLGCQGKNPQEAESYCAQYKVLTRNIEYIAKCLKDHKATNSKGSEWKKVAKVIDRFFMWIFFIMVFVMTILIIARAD
Chain of UniProt Q06124 (whole entry, looked up): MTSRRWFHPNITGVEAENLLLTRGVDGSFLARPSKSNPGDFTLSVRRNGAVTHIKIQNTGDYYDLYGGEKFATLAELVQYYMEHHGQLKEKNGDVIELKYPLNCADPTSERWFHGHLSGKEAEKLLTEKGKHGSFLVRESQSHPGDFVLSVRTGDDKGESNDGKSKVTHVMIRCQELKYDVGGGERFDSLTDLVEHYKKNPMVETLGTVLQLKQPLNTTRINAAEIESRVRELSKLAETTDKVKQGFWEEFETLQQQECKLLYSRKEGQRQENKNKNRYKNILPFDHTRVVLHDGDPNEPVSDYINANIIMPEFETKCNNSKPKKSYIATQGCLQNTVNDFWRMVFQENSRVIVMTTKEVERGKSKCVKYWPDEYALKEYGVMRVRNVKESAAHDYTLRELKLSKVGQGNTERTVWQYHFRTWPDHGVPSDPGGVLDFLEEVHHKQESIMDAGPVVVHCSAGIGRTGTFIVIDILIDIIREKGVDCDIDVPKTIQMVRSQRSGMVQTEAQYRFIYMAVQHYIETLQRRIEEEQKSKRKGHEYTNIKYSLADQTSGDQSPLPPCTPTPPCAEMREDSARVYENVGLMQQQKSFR
Chain of UniProt P31644 (whole entry, looked up): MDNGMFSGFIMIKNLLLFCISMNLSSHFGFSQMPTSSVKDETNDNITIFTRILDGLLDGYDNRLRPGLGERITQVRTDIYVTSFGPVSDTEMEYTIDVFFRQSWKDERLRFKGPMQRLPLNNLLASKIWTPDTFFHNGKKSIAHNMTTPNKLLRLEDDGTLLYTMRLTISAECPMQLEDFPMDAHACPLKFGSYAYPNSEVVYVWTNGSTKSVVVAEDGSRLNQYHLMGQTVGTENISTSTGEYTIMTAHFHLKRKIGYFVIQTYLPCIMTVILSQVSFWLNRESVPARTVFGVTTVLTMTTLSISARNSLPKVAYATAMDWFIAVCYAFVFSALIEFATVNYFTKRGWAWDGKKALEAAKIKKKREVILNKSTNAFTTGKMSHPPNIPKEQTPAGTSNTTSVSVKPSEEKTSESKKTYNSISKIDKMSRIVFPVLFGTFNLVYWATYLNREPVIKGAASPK
Chain of UniProt Q9GZZ6 (whole entry, looked up): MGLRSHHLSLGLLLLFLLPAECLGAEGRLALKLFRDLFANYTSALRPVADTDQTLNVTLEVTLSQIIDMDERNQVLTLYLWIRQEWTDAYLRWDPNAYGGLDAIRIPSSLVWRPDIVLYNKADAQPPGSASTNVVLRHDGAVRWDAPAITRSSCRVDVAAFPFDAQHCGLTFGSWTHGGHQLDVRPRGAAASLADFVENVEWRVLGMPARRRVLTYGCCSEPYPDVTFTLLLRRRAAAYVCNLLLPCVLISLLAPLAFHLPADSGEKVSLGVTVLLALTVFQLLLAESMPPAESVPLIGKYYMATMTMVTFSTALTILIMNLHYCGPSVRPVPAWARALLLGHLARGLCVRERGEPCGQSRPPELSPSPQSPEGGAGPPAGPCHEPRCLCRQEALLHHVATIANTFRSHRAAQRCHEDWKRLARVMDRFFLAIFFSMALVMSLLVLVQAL
Chain of UniProt Q9GZQ4 (whole entry, looked up): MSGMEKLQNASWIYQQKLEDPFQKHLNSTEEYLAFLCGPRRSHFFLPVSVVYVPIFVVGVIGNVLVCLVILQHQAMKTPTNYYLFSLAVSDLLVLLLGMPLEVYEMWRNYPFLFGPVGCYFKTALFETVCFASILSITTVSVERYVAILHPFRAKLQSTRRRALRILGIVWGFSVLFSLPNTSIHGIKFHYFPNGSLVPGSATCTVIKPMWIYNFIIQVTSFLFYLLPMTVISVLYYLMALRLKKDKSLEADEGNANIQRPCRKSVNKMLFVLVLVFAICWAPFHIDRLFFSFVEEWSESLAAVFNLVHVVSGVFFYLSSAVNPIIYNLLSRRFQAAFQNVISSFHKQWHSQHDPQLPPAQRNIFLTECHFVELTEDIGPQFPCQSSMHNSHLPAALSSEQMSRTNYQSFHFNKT
Chain of UniProt P18507 (whole entry, looked up): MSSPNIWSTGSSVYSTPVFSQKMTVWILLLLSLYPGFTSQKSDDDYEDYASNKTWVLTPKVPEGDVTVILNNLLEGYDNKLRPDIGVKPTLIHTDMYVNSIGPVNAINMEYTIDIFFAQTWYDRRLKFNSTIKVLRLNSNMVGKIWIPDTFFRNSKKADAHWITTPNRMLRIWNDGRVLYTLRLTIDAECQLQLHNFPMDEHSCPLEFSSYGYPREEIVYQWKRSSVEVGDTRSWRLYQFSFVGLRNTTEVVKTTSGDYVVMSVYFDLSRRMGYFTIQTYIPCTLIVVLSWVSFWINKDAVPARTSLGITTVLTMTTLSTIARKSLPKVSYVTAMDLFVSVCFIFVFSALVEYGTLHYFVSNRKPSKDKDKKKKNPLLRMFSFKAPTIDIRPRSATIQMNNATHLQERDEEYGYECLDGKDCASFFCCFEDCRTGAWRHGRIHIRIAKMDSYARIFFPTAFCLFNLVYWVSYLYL

Structure (SMILES) = O=C(O)c1ccccc1Nc1cccc(C(F)(F)F)c1; target = BK channel alpha subunit (Cavia porcellus, UniProt A0A286XP95); assay = delayed rectifier K+ current, activator; test system = dispersed vascular smooth muscle cells, guinea pig, AICA arteriole; setting = at +40 mV; EC50 = 270 µM
Structure (SMILES) = CCCCCCCCCCCCCC(=O)O[C@@H]1[C@@H](C)[C@@]2(O)[C@@H](C=C(CO)C[C@]3(O)C(=O)C(C)=C[C@@H]23)[C@@H]2C(C)(C)[C@]12OC(C)=O; target = Prkcd (Mus musculus, UniProt P28867); test system = mouse cells; EC50 = 0.038 ± 0.016 µM
Structure (SMILES) = Oc1noc2c1CCNC2; target = GABA-A receptor; alpha-5/beta-3/gamma-2 (Homo sapiens, UniProt P18507+P28472+P31644); assay = membrane potential, agonist, QP-DHM fluorescence; test system = HEK293 expressing GABAA α5β3γ2; EC50 = 13 µM
Structure (SMILES) = CC(C)C[C@H](NC(=O)[C@H](Cc1ccccc1)NC(=O)[C@H](Cc1ccc(O)cc1)NC(=O)CNC(=O)[C@H](CCCCN)NC(=O)[C@H](CO)NC(=O)[C@H](CCC(N)=O)NC(=O)CNC(=O)[C@@H](NC(=O)[C@H](CO)NC(=O)[C@@H]1CCCN1C(=O)[C@H](CO)NC(=O)[C@H](CCC(N)=O)NC(=O)[C@H](Cc1ccc(O)cc1)NC(=O)[C@H](CCC(=O)O)NC(=O)[C@H](C)NC(=O)[C@H](CCCCN)NC(=O)[C@@H](N)Cc1ccccc1)C(C)C)C(=O)N[C@@H](Cc1ccccc1)C(=O)N[C@@H](CCCNC(=N)N)C(=O)N1CCC[C@H]1C(=O)N[C@@H](CCCNC(=N)N)C(=O)N[C@@H](CC(N)=O)C(N)=O; target = NMUR2 (Homo sapiens, UniProt Q9GZQ4); assay = beta-arrestin recruitment, agonist, PathHunter luminescence; test system = CHO-K1; setting = 90 min, 37 °C; EC50 = 0.0011 µM
Structure (SMILES) = CC(C)(C)NC[C@H](O)COc1nsnc1N1CCOCC1; target = Gag polyprotein, nucleocapsid protein p7 (gag, Human immunodeficiency virus type 1 group M subtype B, UniProt P04591); assay = NCp7-RNA binding enhancement, AlphaScreen; setting = added: U3 RNA; how to read = baseline: DMSO; EC50 = 25.1 µM
Structure (SMILES) = COc1cc(C(=O)N2CC[C@@H](O)[C@@H](N)C2)cc2nc(-c3cc4ccccc4n3CC3CC3)n(C)c12; target = HTR2A; assay = intracellular calcium, agonist, luminescence; EC50 = > 39.8 µM
Structure (SMILES) = CC[C@H](C)[C@H](NC(=O)[C@H](CO)NC(=O)[C@H](C)NC(=O)[C@H](Cc1ccc(OP(=O)(O)O)cc1)NC(=O)[C@H](CCC(=O)O)NC(=O)[C@@H](NC(=O)[C@H](Cc1c[nH]cn1)NC(=O)[C@H](CC(N)=O)NC(=O)[C@H](CC(N)=O)NC(=O)[C@@H]1CCCN1C(=O)[C@H](CCC(=O)O)NC(=O)[C@H](C)NC(=O)[C@H](C)NC(=O)[C@H](CCC(N)=O)NC(=O)[C@@H]1CCCN1C(=O)[C@H](C)NC(=O)[C@@H]1CCCN1C(=O)[C@H](CCCCN)NC(=O)[C@H](CCCCN)NC(=O)CNC(=O)[C@H](CCCCN)NC(=O)[C@@H]1CCCN1C(=O)[C@H](CC(C)C)NC(=O)[C@H](CC(N)=O)NC(=O)[C@H](CC(C)C)NC(=O)[C@H](CC(=O)O)NC(=O)[C@H](C)NC(=O)[C@H](Cc1ccc(OP(=O)(O)O)cc1)NC(=O)[C@@H](NC(=O)[C@@H](NC(=O)[C@@H](N)CC(=O)O)[C@@H](C)CC)[C@@H](C)O)[C@@H](C)O)C(=O)N[C@@H](CCC(N)=O)C(=O)N[C@H](C(=O)N[C@@H](CO)C(=O)O)[C@@H](C)O; target = PTPN11 (Homo sapiens, UniProt Q06124); assay = enzyme activity, activator; setting = pH 7.0, 0.2% DMSO, added: DiFMUP 100 µM, phosphopeptide; EC50 = 0.076 ± 0.001 µM
Structure (SMILES) = C[N+]1(C)CCN(c2ccccc2)CC1; target = Neuronal acetylcholine receptor; alpha9/alpha10 (Homo sapiens, UniProt Q9GZZ6+Q9UGM1); EC50 = 4.39 ± 0.27 µM
Structure (SMILES) = COc1cc(CCNC(CO)c2ccccc2)c(OC)cc1C#N (centres unmarked); target = HTR2A; assay = agonist; EC50 = 0.32 µM
Structure (SMILES) = C[C@H](N)Cn1ncc2ccc3c(c21)CCCO3; target = HTR2A; assay = agonist, aequorin; EC50 = 0.00168 ± 0.00038 µM
Structure (SMILES) = Cc1cccc2c1ccc1ccccc12; target = AHR (Homo sapiens, UniProt P35869); assay = reporter gene, agonist, yeast LacZ reporter; test system = Saccharomyces cerevisiae; setting = 18 h; EC50 = 11.1 µM

A few entries again:
Structure (SMILES) = COc1cc(CCNC(CO)c2ccccc2)c(OC)cc1C#N (centres unmarked); target = HTR2A; assay = agonist; EC50 = 0.32 µM
Structure (SMILES) = C[C@H](N)Cn1ncc2ccc3c(c21)CCCO3; target = HTR2A; assay = agonist, aequorin; EC50 = 0.00168 ± 0.00038 µM
